Measurements from different studies.
Numbered parts are unrelated; each lists some results of a single study. Positions count from the first letter of the parent shown.

Set 1 — target: CCNE1, cyclin fold, Cln2 fusion (human); method: yeast growth competition, sequencing; matrix: yeast; setting: weak parent motif; relative to: not given; direction: higher = stronger binding; measurement: normalised enrichment score
Starting sequence: HASPIN docking peptide (human); ASLRSVLFGLMNS
ASLRSVLFALMNS [G9A]: 1
ASLRSVAFGLMNS [L7A]: 0.147
ASLRSVLFGLANS [M11A]: 0.951
ASLRSVLAGLMNS [F8A]: 0.288
ASLRSALFGLMNS [V6A]: 0.765
AALRSVLFGLMNS [S2A]: 0.402

Set 2 — method: universal PBM; molecule type: double-stranded DNA, one strand shown; matrix: in vitro; concentration: 600 nM; direction: higher = stronger binding; measurement: E-score
Target: Sal-like protein 4, full length isoform A (SALL4, Homo sapiens, UniProt Q9UJQ4, residues 1-1053)
Sequence of UniProt Q9UJQ4 (whole entry, looked up): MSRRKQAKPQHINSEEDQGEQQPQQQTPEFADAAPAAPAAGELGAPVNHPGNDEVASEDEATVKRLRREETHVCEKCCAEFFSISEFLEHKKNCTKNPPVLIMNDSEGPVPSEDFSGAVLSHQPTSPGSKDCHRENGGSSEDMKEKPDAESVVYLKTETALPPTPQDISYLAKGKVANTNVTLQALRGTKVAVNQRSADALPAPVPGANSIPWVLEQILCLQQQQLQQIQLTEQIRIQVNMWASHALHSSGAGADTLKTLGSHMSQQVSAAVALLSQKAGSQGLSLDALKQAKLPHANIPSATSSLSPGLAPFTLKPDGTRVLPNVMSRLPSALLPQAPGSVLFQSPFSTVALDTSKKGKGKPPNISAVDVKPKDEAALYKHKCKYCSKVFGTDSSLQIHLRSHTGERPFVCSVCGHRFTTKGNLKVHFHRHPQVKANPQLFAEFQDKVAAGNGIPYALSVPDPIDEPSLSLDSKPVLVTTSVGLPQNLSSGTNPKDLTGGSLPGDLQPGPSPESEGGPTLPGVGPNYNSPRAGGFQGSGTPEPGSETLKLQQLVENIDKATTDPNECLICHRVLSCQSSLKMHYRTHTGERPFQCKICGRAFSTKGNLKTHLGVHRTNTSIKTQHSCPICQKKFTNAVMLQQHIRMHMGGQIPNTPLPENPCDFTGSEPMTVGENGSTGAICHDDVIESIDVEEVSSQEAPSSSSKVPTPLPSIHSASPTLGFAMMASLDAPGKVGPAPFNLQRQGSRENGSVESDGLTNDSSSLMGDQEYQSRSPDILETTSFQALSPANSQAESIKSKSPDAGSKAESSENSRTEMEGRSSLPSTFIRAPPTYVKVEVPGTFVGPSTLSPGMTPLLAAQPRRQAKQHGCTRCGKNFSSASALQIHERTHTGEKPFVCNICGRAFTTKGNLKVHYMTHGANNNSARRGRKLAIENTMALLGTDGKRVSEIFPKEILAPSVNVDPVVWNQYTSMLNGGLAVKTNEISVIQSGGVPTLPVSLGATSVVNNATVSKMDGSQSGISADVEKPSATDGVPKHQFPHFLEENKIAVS
Setting: 8-mer, flanks averaged, mean of replicates
CGTAGGGC: -0.196
CAACGTGG: -0.24
CGATTCCG: -0.192
AGTATTCC: 0.149
ACCACTTA: 0.00747
ATGGCACA: -0.0121
GTTCCCAA: -0.138
AGCATGCC: -0.196
AAGTTCGA: 0.0483
CAGCCCCA: -0.32
GGAGCTCC: -0.217
CCTACTTA: 0.115
CCCGTTCC: -0.226
GGGCTCGA: -0.193
ACGCAGAT: -0.0283

Set 3 — method: RNA Bind-n-Seq; molecule type: RNA; matrix: in vitro; concentration: 365 nM; relative to: no-protein control; direction: higher = stronger binding; measurement: RBNS enrichment (R)
Target: RNA binding protein fox-1 homolog 2, RRM domain, GST-SBP tag (RBFOX2, Homo sapiens, UniProt O43251-10, residues 100-194)
Setting: natural RNA segment, single round, ends assumed
Target sequence (chain): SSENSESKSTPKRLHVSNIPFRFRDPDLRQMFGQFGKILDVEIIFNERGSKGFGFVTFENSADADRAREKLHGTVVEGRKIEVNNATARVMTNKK
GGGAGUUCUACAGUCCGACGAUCGCUGGAGUUUGGGGGAAGGGGAUGGCUGGAUGUGCUCCAGGCCAUGCUGGAGGUACCCCCGAGGCACAGGCACUGCCCGUUCCCCUUGCCUGGGCUUCAGGCCUUCUGGCUGGAAUUCUCGGGUGCCAA: 0.566
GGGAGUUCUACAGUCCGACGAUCCCCGGCCCAACCCAGCCCAGCCCAGCUCAGCUCAGCUACUGCCAAGGGCAGGACCAAUGGCUGAGCCUCGUGUCCAGACUCAGAGGGCUGGAUUUUGGUUCCCUUGUAAAUGGAAUUCUCGGGUGCCAA: 0.368
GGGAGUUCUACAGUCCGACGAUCAAAAGCUUAAAUAUUCUUUCUUUUAAAUGUCUGUUAAGAAUAUGAUGCCAAUGGCUUGAAUUGAGUUCUUUUCAAGAACUGAUAGACUAUUUGGUAUGAAGUAGCAAAGCUGGAAUUCUCGGGUGCCAA: 0.465
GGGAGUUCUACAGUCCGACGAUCCUCUGGCCCUUGGACUAUGGAAACGUGGGAGGGGCAGGGGAGAUGUGGGGAAGUCCAGGACUCCAGGAGGUGAAAAGGAAAAAAAAAAAAAAAUGUACCUGAUUGCUCCCUGGAAUUCUCGGGUGCCAA: 0.34
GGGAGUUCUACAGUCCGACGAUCUGCCCAUCAUGGCAUUUUCACAUGUCCCAUAUGCCCCUCCUGUCUUAUUCCACUGCUUCUCCCAGCAUUCUGGUGCCUCCAAGCCAUCCCCUCCCACCACCAGCUCUAAGUGGAAUUCUCGGGUGCCAA: 0.979
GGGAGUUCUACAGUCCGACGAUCAUUUCUGUCCCUGAUGAAAGACUGCCCAUUCACCUUGGUUCCCUCCCCUUGUGGCUAAACGAAAGCAAAUGUCCGGAAGUCUUGAGAAGCUGUGUCGUGUUCCCUGUGGAUGGAAUUCUCGGGUGCCAA: 0.747
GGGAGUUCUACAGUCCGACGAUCGAUUGUGUUUGUGCCAUAUUUGUGCCAUUCUUUUAAGAACAAUGUUGCAACACAUUCAUUUGGAUAAGUUGUGAUUUGACGACUGAUUUAAAUAAAAUAUUUGCUUCACUUGGAAUUCUCGGGUGCCAA: 0.346
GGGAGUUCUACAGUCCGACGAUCCCACCCCCACUGAAAAUGGAAUCUUCACUCCCUUGACUACUUGAUUACUGCAUUUCUGCUCUUGGUUCUAGCUGUGUGAACUCUAACUUCUUUCCUGAUGGGGAUCUCUGUGGAAUUCUCGGGUGCCAA: 1.84
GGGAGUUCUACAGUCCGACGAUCAGUGAUAGCGAUACAGCUCAGGAAUGGACUAUGGAAACUGAUACCUAGCGACAUUAGCUGAGAACACCACGGAGCUGCUUCCCUCCCUCUGCAGUCAGUCUGUUUUCAGAUGGAAUUCUCGGGUGCCAA: 0.509
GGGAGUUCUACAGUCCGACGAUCGUAUCUUGACCACCUGGCACCAUGCAUGGCCAGAGCUCAUGUCAUCUCCUGCCUCUGUCACCUCAGUGCAGGGAAACUAUGGCCCCUGUGGUCUUGCUGUCUCUCCCACUUGGAAUUCUCGGGUGCCAA: 1.07
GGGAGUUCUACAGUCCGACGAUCCAAUGGUGACUGAUCUCGAAUCAGGUCUUUUCCUGCAAGGACUAUGGAGUUCCAUUCUUGACAUCUACUUUGGACCAAGGAGCAUCCCUAGUUCUUCAUAGGGACUCUUAUGGAAUUCUCGGGUGCCAA: 0.252
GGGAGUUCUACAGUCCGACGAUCCGGGGCGGGCAGCUCCUUGUCUCUCAGCUUUGACUGACUUGUCCGCAUUGGGGAUUUUUGUUCUCAGCUCCCAGGCCGCACUGAACACAGUGUUGCUGCCUUCAGUUUGGUGGAAUUCUCGGGUGCCAA: 0.318

Further values, each from its own experiment
PhoQ, residues 284 288 289 292 302 303 ALAMYF — fold induction (PhoP, residues 12 14 15 18 19 YHFSH (Escherichia coli, UniProt P23836); Sort-seq, measured: YFP reporter; E. coli; PhoQ-PhoP variant library, together with: 10 µM Mg2+; relative to: high Mg2+ state, higher = stronger signaling): 3.07

For quick reference, copied from above (set 2):
CCTACTTA: 0.115
CCCGTTCC: -0.226
